# Experimental data from different studies.
# Protocols differ between the studies behind these lines.
# Target: Serine/threonine-protein kinase Sgk2 (SGK2, Homo sapiens, UniProt Q9HBY8)
Structure (SMILES),test,test system,conditions,how to read,endpoint,result
C=CC(=O)N1CCCC(n2c(=O)c3ncccc3n(Cc3ccc(Oc4ccccc4)cc3)c2=O)C1 (centres unmarked),"cell-free assay, competition with immobilised ligand",,1 µM,,remaining binding,99%
O=C(Cc1ccc(OCc2ccccc2)cc1)NC1(C(=O)O)CCN(C(=O)c2ccc(-c3cccc(Cl)c3)cc2)CC1,"enzyme activity, inhibitor",,10 µM,,activity vs control,127%
Cc1ccc(C(=O)Nc2ccc(CN3CCN(C)CC3)c(C(F)(F)F)c2)cc1C#Cc1cnc2cccnn12,"target engagement, NanoBRET",human cells,,,upper asymptote,1530
CC(C)=CC1OC(C)(C)C2C=C3C(=O)C(Cl)=CC(O)C3C3C(O)C4OC4C(=O)C132 (centres unmarked),"cell-free assay, competition with immobilised ligand",,10 µM,,remaining binding,75%
Nc1ncc2c(n1)-c1c([nH]c3ccc(C4=CCOCC4)cc13)CCC2,"binding, competition with immobilised ligand",,1 µM,,remaining binding,100%
CNC(=O)C1CCN(c2cc(C)c(F)cc2NC(=O)c2ccc(-c3cc(O)ccc3C)c(C)c2)CC1,"binding, competition with immobilised ligand",,1 µM,,remaining binding,100%
COc1cc(Nc2nc(C)cc(-c3cnn4nc(OC)ccc34)n2)cc(C(F)(F)F)c1,"binding, competition with immobilised ligand",,1 µM,,remaining binding,78%
CCn1cc(C(=O)O)c(=O)c2c(N)c(F)c(NC3CCCCC3)cc21,kinase activity,,"0.1 µM, added: ATP at Km",,inhibition,2.3%
Cc1cccc(O[C@H]2CCC[C@@H](C(C)CNCc3ccncc3)C2)c1 (relative stereo),"enzyme activity, inhibitor",,1 µM,,inhibition,-5%
C=CC(=O)Nc1cccc(-c2cnc3[nH]cc(C(=O)NC(C)(C)C)c3n2)c1,"enzyme activity, inhibitor",,0.1 µM,,inhibition,3%
O=C=[N][Ru-4]123([n]4c5ccc(O)cc5c5c6c(c7cc(F)c[n+]1c7c54)C(=O)NC6=O)[S+]1CC[S+]2CC[S+]3CC1 (centres unmarked),enzyme activity,,"100 nM, human enzyme, added: 10 µM ATP",relative to: untreated,remaining activity,53%
NC(=O)C[C@H]1CCc2sc3ncnc(O[C@H]4CC[C@H](N5CCOCC5)CC4)c3c21,"enzyme activity, inhibitor",,10 µM,,inhibition,7%
C=CC(=O)N1Cc2nc(-c3cc(-c4cc(Cl)cnc4Cl)c(F)cc3F)n(-c3ccncn3)c2C1,"cell-free assay, inhibitor",,1 µM,,inhibition,1.9%
CN1CC[C@@H](COc2cnc(C#N)cc2-c2ccn3nc(NC(=O)C4CC4)cc3c2)C1,"enzyme activity, inhibitor",,1 µM,,inhibition,3%

# A few entries again:
Structure (SMILES),test,test system,conditions,how to read,endpoint,result
C=CC(=O)Nc1cccc(-c2cnc3[nH]cc(C(=O)NC(C)(C)C)c3n2)c1,"enzyme activity, inhibitor",,0.1 µM,,inhibition,3%
